Assay results of several laboratories.
Protocols differ between the studies behind these lines. “And” joins repeats or separate records; there may be more than shown. ± marks the error that the study gave. Converted amounts (≈) assume the structure as drawn.

COc1ccccc1NC(=O)c1ccccc1OCc1ccc([N+](=O)[O-])cc1 — IC50 (HIV-1; viral replication, measured: RT activity; H9 expressing A3G, LAI, X4-tropic wild type; day 7): 2.8 µM
Cc1cc(/C=C/C#N)cc(C)c1Nc1ccnc(Nc2ccc(C#N)cc2)n1 — EC50 (HIV-1; viral replication, single-round infection; RT mutant M184I): 0.0002 ± 8e-05 µM
Nc1nc(NC2CC2)c2ncn([C@H]3C=C[C@@H](CO)C3)c2n1 — IC50 (HIV-1 K65R; MTT; MT4): 1.51 ± 0.705 µM
O=C1Nc2ccc(Cl)cc2[C@@](C#CC2CC2)(C(F)(F)F)O1 — EC50 (HIV-1; viral replication, single-round infection; RT mutant G190A): 0.0011 ± 0.0001 µM
CNc1nc(N)ncc1-c1cn([C@@H]2O[C@H](CO)[C@@H](O)[C@@]2(C)F)cn1 — antiviral activity (Epstein-Barr virus; concentration not given): inactive
CCCC(=O)OCSc1ccccc1C(=O)NCCC(N)=O — EC50 (HIV-1; viral replication; human PBMC, subtype C 92BR025, CCR5-tropic clinical isolate): 2.73 ± 1.56 µM
N#CC(C#N)=NNc1cccc(Cl)c1 — fold enhancement (Escherichia coli; tetracycline MIC, checkerboard; tetracycline-resistant (pBR322); 42 µM, with: tetracycline; relative to: MIC alone over combination): 4 fold
O=C(Nc1ccc2c(c1)OCO2)c1ccccc1Sc1ccc([N+](=O)[O-])cc1 — IC50 (HIV-1; viral replication, measured: RT activity; H9 expressing A3G, LAI, X4-tropic wild type; day 7): 50 µM
Cc1cc(/C=C/C#N)cc(C)c1-n1cnc2cnc(Nc3ccc4cc(C#N)ccc4c3)nc21 — EC50 (HIV-1; viral replication, single-round infection; RT mutant G190A): ≤ 0.0021 µM
COC(CN1CCn2cc(C(=O)NCc3ccc(F)cc3F)c(=O)c(O)c2C1=O)OC — EC50 (human immunodeficiency virus 1; single-round vector infection; integrase R263K): 0.0057 ± 0.0009 µM
COc1ccccc1S(=O)(=O)Nc1ccccc1Sc1ccc([N+](=O)[O-])cc1 — IC50 (HIV-1; viral replication, measured: RT activity; H9 expressing A3G, LAI, X4-tropic wild type; day 7): 21.5 µM
Ro 31-8220 — M protein level (porcine epidemic diarrhea virus; viral infection; concentration not given): decreased
protamine — infection efficiency (feline infectious peritonitis virus; plaque; fcwf-4, type I strain KU-2; concentration not given): increased
CNc1nc(N)ncc1-c1cn([C@@H]2O[C@H](CO[P@@](=O)(N[C@@H](C)C(=O)OC(C)C)Oc3ccccc3)[C@@H](O)[C@@]2(C)F)cn1 — antiviral activity (Dengue virus 2; concentration not given): inactive
Cc1cc(/C=C/C#N)cc(C)c1Nc1nc(Nc2ccc(/C=C/C#N)cc2)ncc1N — EC50 (HIV-1; viral replication, single-round infection; RT mutant V106A/F227L/L234I): < 0.002 µM
CC[C@H](C)[C@H](N)C(=O)N[C@@H](Cc1c[nH]c2ccccc12)C(=O)N[C@@H](CC(C)C)C(=O)N[C@H](C(=O)N[C@@H](C)C(=O)N[C@@H](CC(C)C)C(=O)N[C@@H](CCCCN)C(=O)N[C@@H](Cc1ccccc1)C(=O)N[C@@H](CC(C)C)C(=O)NCC(=O)N[C@@H](CCCCN)C(=O)N[C@@H](Cc1c[nH]cn1)C(=O)N[C@@H](C)C(=O)N[C@@H](C)C(=O)N[C@@H](CCCCN)C(=O)N[C@@H](Cc1c[nH]cn1)C(=O)N[C@@H](CC(C)C)C(=O)N[C@@H](C)C(=O)N[C@@H](CCCCN)C(=O)N[C@@H](CCC(N)=O)C(=O)N[C@@H](CCC(N)=O)C(=O)N[C@@H](CC(C)C)C(=O)N[C@@H](CO)C(=O)N[C@@H](CCCCN)C(=O)N[C@@H](CC(C)C)C(=O)O)[C@@H](C)O — MIC (Escherichia coli; broth microdilution; K12; 37 °C): 25 µM (≈ 71.1 µg/mL)
C=C[C@]1(CO)O[C@@H](n2cnc3c(N)nc(N)nc32)C[C@@H]1O — IC50 (HIV-1 K65R; MTT; MT4): 0.0054 ± 0.0065 µM
Cc1cn([C@H]2C[C@H](N=[N+]=[N-])[C@@H](CO)O2)c(=O)[nH]c1=O — EC50 (HIV-1; viral replication; human PBMC, subtype D 92UG001, dual-tropic clinical isolate): 0.00651 ± 0.00127 µM
Cc1cn([C@H]2C[C@H](N=[N+]=[N-])[C@@H](CO)O2)c(=O)[nH]c1=O — IC50 (HIV-1 M184V; MTT; MT4): 0.0168 ± 0.0128 µM
Cc1cc(/C=C/C#N)cc(C)c1-n1cnc2cnc(Nc3ccc(/C=C/C#N)cc3)nc21 — EC50 (HIV-1; viral replication, single-round infection; RT mutant G190S): ≤ 0.0021 µM
CNc1nc(N)nc2c1ncn2[C@H]1C[C@H](O)[C@](CO)(CF)O1 — IC50 (HIV-1 K65R; MTT; MT4): 0.133 ± 0.0072 µM
COc1ccccc1NC(=O)c1ccccc1Sc1ccccc1 — IC50 (HIV-1; viral replication, measured: RT activity; H9 expressing A3G, LAI, X4-tropic wild type; day 7): > 100 µM
Cc1cc(/C=C/C#N)cc(C)c1Nc1nc(Nc2ccc3cc(C#N)ccc3c2)ncc1N — EC50 (HIV-1; viral replication, single-round infection; RT mutant Y181I): 0.758 ± 0.0572 µM
COc1ccccc1NC(=O)c1ccccc1OCc1cccc([N+](=O)[O-])c1 — IC50 (HIV-1; viral replication, measured: RT activity; H9 expressing A3G, LAI, X4-tropic wild type; day 7): 7.1 µM
C#C[C@]1(CO)O[C@@H](n2cnc3c(N)nc(F)nc32)C[C@@H]1O — IC50 (HIV-1 M184V; MT4): 0.0037 ± 0.0017 µM
NC(=O)CCNC(=O)c1ccccc1S — EC50 (HIV-1; viral replication; human PBMC, subtype C 98IN017, CXCR4-tropic clinical isolate): 4.42 ± 0.37 µM
C[C@]1(CO)O[C@@H](n2cnc3c(N)nc(N)nc32)C[C@@H]1O — IC50 (HIV-1 M184V; MTT; MT4): > 1 µM
O=C(Nc1cccc(CO)c1)c1ccccc1Sc1ccc([N+](=O)[O-])cc1 — IC50 (HIV-1; viral replication, measured: RT activity; H9 expressing A3G, LAI, X4-tropic wild type; day 7): 50 µM
C#C[C@]1(CO)O[C@@H](n2cnc3c(=O)[nH]c(N)nc32)C[C@@H]1O — IC50 (HIV-1 M184V; MTT; MT4): 0.0044 ± 0.0032 µM
Cn1c(Cn2ccc(C(F)(F)F)c(Oc3cc(Cl)cc(C#N)c3)c2=O)n[nH]c1=O — EC50 (HIV-1; viral replication, single-round infection; RT mutant K101E/M184I): 0.0023 ± 0.0006 µM
COc1ccccc1NS(=O)(=O)c1ccccc1Sc1ccc([N+](=O)[O-])cc1 — IC50 (HIV-1; viral replication, measured: RT activity; H9 expressing A3G, LAI, X4-tropic wild type; day 7): 5.9 µM
caspofungin — radial growth (Aspergillus fumigatus; solid medium; 0.125 µg/mL, 4 days, unit not given; relative to: untreated control): 0.222 and 0.276 and 0.235
CC[C@]1(CO)O[C@@H](n2cnc3c(=O)[nH]c(N)nc32)C[C@@H]1O — IC50 (HIV-1 T215F; MTT; MT4): 0.0199 ± 0.0031 µM
O=C(Nc1ccccc1F)c1ccccc1Sc1ccc([N+](=O)[O-])cc1 — IC50 (HIV-1; viral replication, measured: RT activity; H9 expressing A3G, LAI, X4-tropic wild type; day 7): > 100 µM

A few entries again:
O=C(Nc1cccc(CO)c1)c1ccccc1Sc1ccc([N+](=O)[O-])cc1 — IC50 (HIV-1; viral replication, measured: RT activity; H9 expressing A3G, LAI, X4-tropic wild type; day 7): 50 µM
C#C[C@]1(CO)O[C@@H](n2cnc3c(=O)[nH]c(N)nc32)C[C@@H]1O — IC50 (HIV-1 M184V; MTT; MT4): 0.0044 ± 0.0032 µM
Cn1c(Cn2ccc(C(F)(F)F)c(Oc3cc(Cl)cc(C#N)c3)c2=O)n[nH]c1=O — EC50 (HIV-1; viral replication, single-round infection; RT mutant K101E/M184I): 0.0023 ± 0.0006 µM
COc1ccccc1NS(=O)(=O)c1ccccc1Sc1ccc([N+](=O)[O-])cc1 — IC50 (HIV-1; viral replication, measured: RT activity; H9 expressing A3G, LAI, X4-tropic wild type; day 7): 5.9 µM
caspofungin — radial growth (Aspergillus fumigatus; solid medium; 0.125 µg/mL, 4 days, unit not given; relative to: untreated control): 0.222 and 0.276 and 0.235
